Measured values pooled from the literature.
A part holds a random share of what one study measured. Positions count from the first letter of the parent shown.

Set 1 — method: protein binding microarray; molecule type: double-stranded DNA, one strand shown; matrix: in vitro; tested at: not given; relative to: not given; direction: higher = stronger binding
Target: Histone acetyltransferase KAT6A, winged helix 2, GST fusion (KAT6A, Homo sapiens, UniProt Q92794, residues 85-181)
Setting: 8-mer, flanks averaged, mean of 2 arrays, mostly near background
Target sequence (chain): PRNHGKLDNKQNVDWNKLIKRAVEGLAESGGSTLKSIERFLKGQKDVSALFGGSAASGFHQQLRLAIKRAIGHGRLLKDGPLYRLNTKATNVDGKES
| Strand | E-score |
| --- | --- |
| GGATACAA | -0.0234 |
| GTTCAAGA | 0.104 |
| GAGTAAAC | 0.0194 |
| GAGCGTAC | 0.0363 |
| GATTGGGC | 0.168 |
| TGAACTCA | 0.0123 |
| ACGGCATC | 0.0672 |
| AGAGCGAG | 0.124 |
| ATCCGGGC | 0.193 |
| ACCTGCCC | 0.181 |
| CGTGTAGA | -0.0525 |
| CCGAAAAC | 0.0616 |
| ACCTCGCC | 0.00073 |
| CGCATTGC | 0.14 |
| GGCTTTCA | 0.144 |
| ATCGAAGA | 0.134 |
| ACCGTGAT | -0.0675 |
| CCCCGGTC | 0.14 |
| AATTTTGG | 0.106 |
| GCAGAAAC | 0.185 |
| ACCGGACA | -0.0636 |
| CACTAAAG | 0.112 |
| CCCGACTA | -0.0131 |
| CGACGGGA | 0.195 |
| GAGACGAA | 0.182 |

Set 2 — method: RNA Bind-n-Seq; molecule type: RNA; matrix: in vitro; tested at: 200 nM; setting: whole 134-nt RNA, ends assumed; with: 150 mM KCl; relative to: input library; direction: higher = stronger binding
Target: Fragile X messenger ribonucleoprotein 1, C-terminal low-complexity region (Fmr1, Mus musculus, UniProt P35922)
Constant ends, left off below: GGGAGUUCUACAGUCCGACGAUC … UGGAAUUCUCGGGUGUCAAGG
| Strand | log2 enrichment |
| --- | --- |
| AGUCCUGUGCUACACAUCGUAUGUACCGAAUCGGGGUUUUUGGGGAAAGGGGUGGGGAAAGUAUUAUGUUACGCCGUUCGGAUCUGCACU | 0.537 |
| CUCAAGUCCUGUGCUACACAUCGUAUGUACCGAAUCGGAGGUUUUUUUGGUGGAAAGUAUUAUGUUACGCCGUUCGGAUCUGCACUUCCA | -0.305 |
| ACCAUGCAGGUGGGCAUCUUUGGGAAGUGGGGCAAGAGGGGGAUAGGGAGGGGGGUAACACUUUGGGAACAGGUGGUCCCAGGUCGUUUC | 0.795 |
| UUGAUUGAUAUUACAGGCAAGAACCAGGAUGAAUGUGUGAUUGCUUUGCAUGACUGCAAUGGAGAUGUCAACAGAGCUAUCAAUGUUCUU | -2.54 |
| UCCUGUGCUACACAUCGUAUGUACCGAAUCGGAAAAAAGGGAAAAAAGGGAAAAAAGGGAAAGUAUUAUGUUACGCCGUUCGGAUCUGCA | -0.248 |
| GUGCUACACAUCGUAUGUACCGAAUCGGGGUUUUUUUGGGGUUUUUUUGGGGUUUUUUUGGGGAAAGUAUUAUGUUACGCCGUUCGGAUC | 0.629 |
| AAGUCCUGUGCUACACAUCGUAUGUACCGAAUCGGGGUUUGGGGAAAGGGGUGGGGAAAGUAUUAUGUUACGCCGUUCGGAUCUGCACUU | 1.1 |
| GCAGGAAGUAAAAACAAAUGGAAAUGCUUCGGAUAGUGGCAGGGGUGGGAGUUGCUAAGGAAAGGGUGGGAUGGGAGUGGGUAAAGAGUU | 0.0704 |
| CUCAAGUCCUGUGCUACACAUCGUAUGUACCGAAUCGGAAAAAGGUGGAAAGGAAAGUAUUAUGUUACGCCGUUCGGAUCUGCACUUCCA | -0.241 |
| UGGCCCUGGUGGCAUGCGGGGAGGAAGAGGUGGCCUCUUGGAUCGUGGUGGUCCCGGUGGAAUGUUCAGAGGUGGCCGUGGUGGAGACAG | 0.0386 |
| AAGUCCUGUGCUACACAUCGUAUGUACCGAAUCGGGGAAAGGGGAAAGGGAAAGGGAAAGUAUUAUGUUACGCCGUUCGGAUCUGCACUU | 0.445 |
| CCUGUGCUACACAUCGUAUGUACCGAAUCGGCCCCCCCGGGCCCCCCCGGCCCCCCCGGGGAAAGUAUUAUGUUACGCCGUUCGGAUCUG | -0.3 |
| GUCCUGUGCUACACAUCGUAUGUACCGAAUCGGGAAAAAAGGAAAAAAGGGAAAAAAGGAAAGUAUUAUGUUACGCCGUUCGGAUCUGCA | -0.661 |
| CCUGUGCUACACAUCGUAUGUACCGAAUCGGGGUUUUUUUGGGGAAAAAAAGGGGUGGGGAAAGUAUUAUGUUACGCCGUUCGGAUCUGC | 0.438 |

Set 3 — Molecule: B1 (RLIM RING domain); method: yeast two-hybrid; matrix: yeast; setting: mostly zero background; relative to: not given; direction: higher = stronger interaction
B1: RLIM RING domain (UniProt Q9NVW2); chain SFGENDALKTCSVCITEYTEGNKLRKLPCSHEYHVHCIDRWLSENSTCPICRRAVLASGNRE
| target | lacZ reporter activity |
| --- | --- |
| UBE2S UBC core domain (UniProt Q16763) | 0 |
| UBE2T UBC core domain (UniProt Q9NPD8) | 0 |
| UBE2Q1 UBC core domain (UniProt Q7Z7E8) | 0 |
| UBE2R2 UBC core domain (UniProt Q712K3) | 0 |
| BIRC6 UBC core domain (UniProt Q9NR09) | 0 |
| UBE2C UBC core domain (UniProt O00762) | 0 |
| UBE2D1 UBC core domain (UniProt P51668) | 0 |
| UBE2O UBC core domain (UniProt Q9C0C9) | 0 |
| UBE2B UBC core domain (UniProt P63146) | 0 |
| UBE2G1 UBC core domain (UniProt P62253) | 0 |
| UBE2L3 UBC core domain (UniProt P68036) | 0 |
| UBE2Z UBC core domain (UniProt Q9H832) | 0 |
| UBE2J1 UBC core domain (UniProt Q9Y385) | 0 |
| UBE2I UBC core domain (UniProt P63279) | 0 |
| UBE2M UBC core domain (UniProt P61081) | 0 |
| UBE2E3 UBC core domain (UniProt Q969T4) | 0 |

Set 4 — method: DHFR PCA, deep sequencing; matrix: yeast; with: (+)-ABA 0 µM; relative to: wild-type fitted maximum; direction: higher = stronger binding
Target: ABI1, truncated, D143A, DHFR fusion (Arabidopsis thaliana)
Setting: methotrexate growth selection, single substitutions
Starting sequence: PYL1, truncated, DHFR fusion (Arabidopsis thaliana); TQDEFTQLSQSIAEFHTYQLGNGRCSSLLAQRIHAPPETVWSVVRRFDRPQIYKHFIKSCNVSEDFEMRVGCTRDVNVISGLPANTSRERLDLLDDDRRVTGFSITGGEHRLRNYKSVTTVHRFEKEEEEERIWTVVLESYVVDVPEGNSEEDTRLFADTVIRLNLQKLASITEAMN
| Variant | relative binding score [%] |
| --- | --- |
| K54Y | -5.08 |
| L28T | 5.62 |
| D48I | -0.902 |
| M176Y | 4.86 |
| E67P | 1.85 |
| R163N | -15.4 |
| G108K | 0.491 |
| R49L | -4.07 |
| G102L | -2.96 |
| K54T | -4.64 |
| I162A | 7.01 |
| E139V | 7.73 |
| T39W | -1.5 |
| L94A | -4.95 |
| N77F | 14.2 |
| L8S | -2.85 |
| L94W | 2.82 |
| W41Q | -1.07 |
| L20R | 23.5 |
| A175V | 5.48 |
| C72I | 9.51 |
| K126W | 7.33 |
| L20P | 39.9 |
| N22D | 38.8 |
| E109P | -0.0658 |

Some of these lines once more (set 4):
| Variant | relative binding score [%] |
| --- | --- |
| G108K | 0.491 |
| R49L | -4.07 |
| G102L | -2.96 |
| K54T | -4.64 |
| I162A | 7.01 |
| E139V | 7.73 |
| T39W | -1.5 |
| L94A | -4.95 |
